Results of several laboratories.
Numbered parts are unrelated; each lists some results of a single study. Positions count from the first letter of the parent shown.

Study 1
Target: Histone acetyltransferase KAT6A, winged helix 1, GST fusion (KAT6A, Homo sapiens, UniProt Q92794, residues 1-85)
Method: protein binding microarray
Form: double-stranded DNA, one strand shown
Sample: in vitro
Concentration: not given
Setting: 8-mer, flanks averaged, mean of 2 arrays, mostly near background
Relative to: not given
Direction: higher = stronger binding
Endpoint: E-score
Construct (chain): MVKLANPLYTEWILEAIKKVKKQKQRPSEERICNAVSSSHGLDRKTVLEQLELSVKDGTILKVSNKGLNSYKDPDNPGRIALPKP
ATAGTGGG: -0.25
AACAGTCT: -0.0822
CGCAAAAA: 0.0886
CCGTCTAC: 0.246
AGATCCCC: 0.0151
ACGGACCT: 0.189
CCCTGCCA: -0.107
AACCACTT: -0.109
GCCGAGGA: 0.157
AGGAGTTG: -0.122
ATAGAAAA: -0.137
CGCACCCG: 0.373
ACTAGCCC: 0.0356
CCGCGTTA: 0.356
CGAACTTC: -0.289
CGCTCTAG: 0.216
CAACCCCA: -0.0757

Study 2
Target: CCNE2, cyclin fold, Cln2 fusion (human)
Method: yeast growth competition, sequencing
Sample: yeast
Setting: strong parent motif
Relative to: not given
Direction: higher = stronger binding
Endpoint: normalised enrichment score
Starting sequence: INSM1 docking peptide (human); PKAIRKLHFEDEV; partner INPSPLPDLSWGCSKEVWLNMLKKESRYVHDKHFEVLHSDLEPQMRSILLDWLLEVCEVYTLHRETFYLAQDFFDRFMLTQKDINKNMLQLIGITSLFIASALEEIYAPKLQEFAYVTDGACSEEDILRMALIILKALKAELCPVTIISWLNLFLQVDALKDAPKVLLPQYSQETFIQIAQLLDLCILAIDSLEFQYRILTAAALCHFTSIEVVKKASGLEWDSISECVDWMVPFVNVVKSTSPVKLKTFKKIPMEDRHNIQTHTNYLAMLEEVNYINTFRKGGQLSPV
E12R: 1.83
E10V: 1.2
H8R: 0.68
R5T: 0.00583
A3G: 0.748
D11I: 1.65
A3W: 0.614
A3Q: 0.627
K2Y: 1.1
K6L: 0.226
A3H: 3.13
K6I: 0.759
K6Q: 1.77
F9G: 0.316
R5D: 0.306
I4M: 1.24
H8K: 1.6
H8D: 1.29

Study 3
Target: ABI1, truncated, D143A, DHFR fusion (Arabidopsis thaliana)
Method: DHFR PCA, deep sequencing
Sample: yeast
Setting: methotrexate growth selection, single substitutions
Added: (+)-ABA 710 µM
Relative to: wild-type fitted maximum
Direction: higher = stronger binding
Endpoint: relative binding score
Starting sequence: PYL1, truncated, DHFR fusion (Arabidopsis thaliana); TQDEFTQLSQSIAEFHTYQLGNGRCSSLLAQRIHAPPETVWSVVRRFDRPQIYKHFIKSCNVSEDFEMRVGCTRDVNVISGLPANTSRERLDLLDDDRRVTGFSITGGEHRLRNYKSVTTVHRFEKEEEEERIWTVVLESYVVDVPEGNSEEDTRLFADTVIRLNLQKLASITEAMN
F157K: -5.28%
I172Q: 89.3%
Q167L: 98.2%
R111A: 73.9%
N77S: 105%
N77P: 29.5%
M68K: 90.6%
R163V: 64.1%
R88T: 111%
V143K: -5.62%
D92E: 98.7%
R99P: 21.1%
R24E: 98.8%
R88L: 103%
R49E: 99.3%
T73V: 104%
R90M: 90%
Q10K: 109%
D144G: 72.2%
V145K: 79.2%
G108L: 26.5%

Study 4
Target: RNA binding protein fox-1 homolog 2, RRM domain, GST-SBP tag (RBFOX2, Homo sapiens, UniProt O43251-10, residues 100-194)
Method: RNA Bind-n-Seq
Form: RNA
Sample: in vitro
Concentration: 365 nM
Setting: natural RNA segment, single round, ends assumed
Relative to: no-protein control
Direction: higher = stronger binding
Endpoint: RBNS enrichment (R)
All sequences stand within: GGGAGUUCUACAGUCCGACGAUC … UGGAAUUCUCGGGUGCCAA
Target sequence (chain): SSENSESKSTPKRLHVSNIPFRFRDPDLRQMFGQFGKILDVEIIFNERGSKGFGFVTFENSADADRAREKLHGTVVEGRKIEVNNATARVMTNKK
CCGCAACCACACCUACAAUACCUAUAUCGGGCAGGGUUACAUCAUCCCCGGGAUGGACCAGGGGCUGCAGGGUGCCUGCAUGGGGGAACGCCGGAGAAUUACCAUCCCCC: 1.06
CCUGGGUUUCCUUGGCUUCCUGCAGCAAAUUGGGCAGUUCUCUGCCCCUUGCCUAAAAGCCUGUACCUCUGGAUUGGCGGAAGUAAAUCUGGAAGGAUUCUCACUCGUAU: 0.196
UGACAAGGGGACGGGGUCUGUGAGAGUCAAUUCAGGGGAAAGAUACAAGAUUGAUUUGUAAAACCCUUGAAAUGUAGAUUUCUUGUAGAUGUAUCUUCACGUUGUAAAUA: 0.623
UUAACAUUAGGCUCCUUGCUACUUAUGCAAAUUUCUGCAGCUGGCUUGAAUUUCUCCCCAGAAAAUGGGUUUUUCUUUUCUAUUGCAUAGUCAGGCUGCAAAUUUCCAAA: 0.768
UUUAGCUACGUGGACCGGCUCUUCUCACCCCCCAGAUGAUGCUGGCAUGGAACGCAGUGCUCUUCACCGUCUGGCGAGUGCAUGCCAAGAGAGCUAGACAGCAGCAUUAC: 12.9
CUCCUGGGAGGGGCGUUCUCCUGGCUUGAGAAGUAGCUGUGUAGUGAAGGCACAGGGUUGUGUGGGUGACUAACUUCACACGGCAGAAGAGAUGUUGCUCUAAUGCUCAC: 0.607
CUAGACGGGGCGGUCGGGUGCCUGCGGCCUCGCCCGCACGCCUAGAGUCUCGCCCGAUCCCAUCGGCAUCCCGGGGAGGGCCCGGGAGCCUCCGUCAACCGUCCUCUAAU: 0.264
AAGCAGCUGGACUAUGCAAAAAGUAUUUCUCUGUCAGUUCCCCACUCUAUACCAAGGAUAUUAUUAAAACUAGAAAUGACUGCAUUGAGAGGGAGUUGUGGGAAAUAAGA: 0.61
CGCCUGGCUAGCGCUGCCCCUGCUGCUGCUGCCGCGCCACCCUUGGGAACCACUUCCCGAGCUUAUGUGUAUAUAAAUAGUUAUUUAUUAACAUCAUUGGUCAUUUUUAA: 0.268
UUAACAUAAAUCAUGCAUGUCUGUUUACUUUAGUGACGUUCCACAGAAUAAAAGGAAACAAGUUUGCCAUCUUGGUGUUGCAAUAUGAAUUACAGCCUUAACAGACUGUG: 4.02
GCUUCUCUACGCUGAGCAAAGCCCACCUUUGACCCCAGCUGACUCUCUCCUGGGCAGGAAAGCCCUCCUAGGGGAGAUUUCCAGGAGAUGUGGCCUUGACGAGUUUCUUC: 0.213
CUCCUCCCUUCAGACCCAUCAUUGAGAACAAAUGUAAGAAAUCCCUUCCCACCACCCUCCCUGCCUCCCAGGCCCUCUGCGGGGGAAACAAGAUCACCCAGCAUCCUUCC: 0.729

Study 5
Target: UBE2Q2 UBC core domain (UniProt Q8WVN8)
Sequence of UniProt Q8WVN8 (whole entry, looked up): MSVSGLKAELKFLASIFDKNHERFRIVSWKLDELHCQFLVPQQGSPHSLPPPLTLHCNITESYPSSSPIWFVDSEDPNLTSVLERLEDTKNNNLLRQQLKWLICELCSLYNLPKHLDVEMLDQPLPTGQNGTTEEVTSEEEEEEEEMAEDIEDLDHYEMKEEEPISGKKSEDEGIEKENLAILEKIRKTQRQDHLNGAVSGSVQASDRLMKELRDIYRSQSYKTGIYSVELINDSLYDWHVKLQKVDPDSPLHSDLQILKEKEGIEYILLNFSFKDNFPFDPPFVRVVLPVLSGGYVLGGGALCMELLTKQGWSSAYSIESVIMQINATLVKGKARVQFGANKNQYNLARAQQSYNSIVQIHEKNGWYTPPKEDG
Method: yeast two-hybrid
Sample: yeast
Setting: mostly zero background
Relative to: not given
Direction: higher = stronger interaction
Endpoint: lacZ reporter activity
B1: UHRF2 RING domain (UniProt Q96PU4); chain CGGDPEKKCHSCSCRVCGGKHEPNMQLLCDECNVAYHIYCLNPPLDKVPEEEYWYCPSCKTDSSEVVKAGER
B2: RNF25 RING domain (UniProt Q96BH1); chain LTDNNIPHGQCVICLYGFQEKEAFTKTPCYHYFHCHCLARYIQHMEQELKAQGQEQEQERQHATTKQKAVGVQCPVCREPLVYDLASL
B3: TRIM69 RING domain (UniProt Q86WT6); chain VIQDITMELHCPLCNDWFRDPLMLSCGHNFCEACIQDFWRLQAKETFCPECKMLCQYNNCTF
B4: TRIM8 RING domain (UniProt Q9BZR9); chain WKNCFEEELICPICLHVFVEPVQLPCKHNFCRGCIGEAWAKDSGLVRCPECNQAYNQKPGLE
B5: IRF2BPL RING domain (UniProt Q9H1B7); chain SPMANSGPLCCTICHERLEDTHFVQCPSVPSHKFCFPCSRESIKAQGATGEVYCPSGEKCPLVGSNVP
B6: TRIM63 RING domain (UniProt Q969Q1); chain PMENLEKQLICPICLEMFTKPVVILPCQHNLCRKCANDIFQAANPYWTSRGSSVSMSGGRFRCPTCRHEVIMDRHGV
B7: MID1 RING domain (UniProt O15344); chain METLESELTCPICLELFEDPLLLPCAHSLCFNCAHRILVSHCATNESVESITAFQCPTCRHVITLSQRGL
B1 (UHRF2 RING domain): 0
B2 (RNF25 RING domain): 0
B3 (TRIM69 RING domain): 0
B4 (TRIM8 RING domain): 0
QLRRLQEERTCKVCMDKEVSVVFIPCGHLVVCQECAPSLRKCPICRGIIKGTVRTF (BIRC2 RING domain (UniProt Q13490)): 0
FPEHFVKSISCQICEHILADPVETNCKHVFCRVCILRCLKVMGSYCPSCRYPCFPTDLES (RAG1 RING domain (UniProt P15918)): 0
PEELQAMDNVCIICREEMVTGAKRLPCNHIFHTSCLRSWFQRQQTCPTCRMDVLRASLPA (SYVN1 RING domain (UniProt Q86TM6)): 0
QLRRLQEERTCKVCMDKEVSIVFIPCGHLVVCKDCAPSLRKCPICRSTIKGTVRTF (BIRC3 RING domain (UniProt Q13489)): 0
QHHELTSLFECPVCFDYVLPPILQCQAGHLVCNQCRQKLSCCPTCRGALTPSIRNL (SIAH2 RING domain (UniProt O43255)): 0
QLQDIKEQTMCPVCLDRLKNMIFLCGHGTCQLCGDRMSECPICRKAIERRILLY (MIB1 RING domain (UniProt Q86YT6)): 0
B5 (IRF2BPL RING domain): 0
EDEVSDNSAECVVCLSDVRDTLILPCRHLCLCNTCADTLRYQANNCPICRLPFRALLQIR (RNF157 RING domain (UniProt Q96PX1)): 0
B6 (TRIM63 RING domain): 0
B7 (MID1 RING domain): 0
FASPPDSNFVCSVCHGVLKRPARLPCSHIFCKKCILRWLARQKTCPCCRKEVKRKKVVH (RNF151 RING domain (UniProt Q2KHN1)): 0
